Earlier results as cited in several papers.
± marks the error that the study gave. Values after ≈ are worked out from the molar mass of the structure shown.

NCCCn1c2ccc([N+](=O)[O-])cc2c(=O)n1Cc1ccccc1 — result for antiparasitic activity: “active” (Trypanosoma cruzi; concentration not given, epimastigotes).
C[C@@](CCc1ccc(-c2ccccc2)cc1)(C(=O)NO)S(C)(=O)=O has an MIC90 of 4 µg/mL (≈ 11.5 µM) (Pseudomonas aeruginosa; 138 clinical isolates).
The inhibition of O=C(Nc1ccccc1-n1ncc2ccccc21)c1cccnc1Cl is reported as 75% (Rhizoctonia solani; fungal growth; in vitro; 50 mg/L).
Cc1nc(N(C)C(=O)Cc2ccc(-c3ccccc3)cc2)sc1S(=O)(=O)NCC(F)(F)F gave an EC50 of 150 nM (herpes simplex virus 2; viral replication).
For CSCC[C@H](NC(=O)[C@H](CCCNC(=N)N)NC(=O)[C@H](Cc1c[nH]c2ccccc12)NC(=O)[C@H](CCC(N)=O)NC(=O)[C@H](Cc1c[nH]c2ccccc12)NC(=O)[C@H](CCCNC(=N)N)NC(=O)[C@@H](N)CCCNC(=N)N)C(=O)N[C@@H](CCCCN)C(=O)N[C@@H](CCCCN)C(=O)N[C@@H](CC(C)C)C(=O)NCC(=O)NCCCC[C@H](NC(=O)CNC(=O)[C@H](CC(C)C)NC(=O)[C@H](CCCCN)NC(=O)[C@H](CCCCN)NC(=O)[C@H](CCSC)NC(=O)[C@H](CCCNC(=N)N)NC(=O)[C@H](Cc1c[nH]c2ccccc12)NC(=O)[C@H](CCC(N)=O)NC(=O)[C@H](Cc1c[nH]c2ccccc12)NC(=O)[C@H](CCCNC(=N)N)NC(=O)[C@@H](N)CCCNC(=N)N)C(=O)NCCCCCC(=O)N[C@@H](CSSC[C@H](NC(=O)CCCCCNC(=O)[C@H](CCCCNC(=O)CNC(=O)[C@H](CC(C)C)NC(=O)[C@H](CCCCN)NC(=O)[C@H](CCCCN)NC(=O)[C@H](CCSC)NC(=O)[C@H](CCCNC(=N)N)NC(=O)[C@H](Cc1c[nH]c2ccccc12)NC(=O)[C@H](CCC(N)=O)NC(=O)[C@H](Cc1c[nH]c2ccccc12)NC(=O)[C@H](CCCNC(=N)N)NC(=O)[C@@H](N)CCCNC(=N)N)NC(=O)CNC(=O)[C@H](CC(C)C)NC(=O)[C@H](CCCCN)NC(=O)[C@H](CCCCN)NC(=O)[C@H](CCSC)NC(=O)[C@H](CCCNC(=N)N)NC(=O)[C@H](Cc1c[nH]c2ccccc12)NC(=O)[C@H](CCC(N)=O)NC(=O)[C@H](Cc1c[nH]c2ccccc12)NC(=O)[C@H](CCCNC(=N)N)NC(=O)[C@@H](N)CCCNC(=N)N)C(N)=O)C(N)=O, the MBC was 15 µM (≈ 102 µg/mL) (Escherichia coli; ATCC 25922).
COc1ccc(NC2=C(O)C(=O)c3ccccc3C2=O)cc1 has a parasitemia inhibition of 25.9% (Plasmodium berghei; infected mice; dose not given, day 7; reference: untreated).
The EC80 of CC1CC(C)(C)c2cccc(NC(=O)c3cccnc3Cl)c21 (stereo not drawn) is reported as 10 to 40 mg a.i./L (Botrytis cinerea; cucumber).
For C/C=C1\NC(=O)[C@H](Cc2ccccc2)NC(=O)[C@H](C(C)C)NC(=O)[C@H](Cc2ccncc2)NC(=O)[C@H](CCC(N)=O)NC(=O)[C@H](Cc2ccc3ccccc3c2)NC(=O)[C@H]2CSC[C@@H](C(=O)N[C@@H](CO)C(=O)O)NC(=O)[C@H](CSC[C@H]3NC(=O)[C@H]([C@@H](C)CC)NC(=O)[C@H](NC(=O)[C@H](Cc4c[nH]cn4)NC(=O)[C@@H](NC(=O)[C@@H](NC(=O)CNC(=O)[C@H](CO)NC(=O)CNC(=O)CNC(=O)[C@@H](N)CCCCN)C(C)C)[C@@H](C)CC)[C@H](C)SC[C@H](NC(=O)[C@H](CCC(=O)O)NC(=O)[C@H](Cc4c[nH]cn4)NC3=O)C(=O)N[C@@H](CCCNC(=N)N)C(=O)N[C@@H](CCSC)C(=O)N[C@@H](CC(N)=O)C(=O)N2)NC1=O, the IC50 was 2420 ± 60 nM (Lactococcus lactis subsp. cremoris; cell growth; HP).
With CSCC[C@H](NC(=O)[C@H](CCCNC(=N)N)NC(=O)[C@H](Cc1c[nH]c2ccccc12)NC(=O)[C@H](CCC(N)=O)NC(=O)[C@H](Cc1c[nH]c2ccccc12)NC(=O)[C@H](CCCNC(=N)N)NC(=O)[C@@H](N)CCCNC(=N)N)C(=O)N[C@@H](CCCCN)C(=O)N[C@@H](CCCCN)C(=O)N[C@@H](CC(C)C)C(=O)NCC(=O)NCCCC[C@H](NC(=O)CNC(=O)[C@H](CC(C)C)NC(=O)[C@H](CCCCN)NC(=O)[C@H](CCCCN)NC(=O)[C@H](CCSC)NC(=O)[C@H](CCCNC(=N)N)NC(=O)[C@H](Cc1c[nH]c2ccccc12)NC(=O)[C@H](CCC(N)=O)NC(=O)[C@H](Cc1c[nH]c2ccccc12)NC(=O)[C@H](CCCNC(=N)N)NC(=O)[C@@H](N)CCCNC(=N)N)C(=O)NCCCCCC(N)=O the MBC was 60 µM (≈ 199 µg/mL) (Escherichia coli; ATCC 11775).
Under activity, CN1C[C@H](c2cccc(C(F)(F)F)c2)[C@@H](C(=O)Nc2ccccc2F)C1=O is recorded as “inactive” (Aspergillus; antifungal activity; concentration not given).
For COCCOCCOCCOCCC(=O)NCc1cc(CNC(=O)CCOCCOCCOCCOC)cc(-c2cc3cc4nc(c(OC)c5[nH]c(cc6nc(cc2[nH]3)CC6(C)C)cc5-c2cc(CNC(=O)CCOCCOCCOCCOC)cc(CNC(=O)CCOCCOCCOCCOC)c2)CC4(C)C)c1, the kf^−1 was 16 ns (DMF; room temperature).
NCCn1c2ccc([N+](=O)[O-])cc2c(=O)n1Cc1ccccc1: antiparasitic activity “active” (Trypanosoma cruzi; concentration not given, epimastigotes).
CN(C(=O)Nc1ccc(N2CCOCC2)cc1)c1nc(Cl)c(S(=O)(=O)N(C)C)s1 has an EC50 of 500 nM (herpes simplex virus 1; viral replication).
CSCC[C@H](NC(=O)[C@H](CCCNC(=N)N)NC(=O)[C@H](Cc1c[nH]c2ccccc12)NC(=O)[C@H](CCC(N)=O)NC(=O)[C@H](Cc1c[nH]c2ccccc12)NC(=O)[C@H](CCCNC(=N)N)NC(=O)[C@H](CCCNC(=N)N)NC(=O)[C@H](C)NC(=O)[C@H](CCCCN)NC(=O)[C@@H](N)Cc1ccccc1)C(=O)N[C@@H](CCCCN)C(=O)N[C@@H](CCCCN)C(=O)N[C@@H](CC(C)C)C(=O)NCC(=O)N[C@@H](C)C(=O)NCCCC[C@H](NC(=O)[C@H](C)NC(=O)CNC(=O)[C@H](CC(C)C)NC(=O)[C@H](CCCCN)NC(=O)[C@H](CCCCN)NC(=O)[C@H](CCSC)NC(=O)[C@H](CCCNC(=N)N)NC(=O)[C@H](Cc1c[nH]c2ccccc12)NC(=O)[C@H](CCC(N)=O)NC(=O)[C@H](Cc1c[nH]c2ccccc12)NC(=O)[C@H](CCCNC(=N)N)NC(=O)[C@H](CCCNC(=N)N)NC(=O)[C@H](C)NC(=O)[C@H](CCCCN)NC(=O)[C@@H](N)Cc1ccccc1)C(=O)NCCCCCC(N)=O has an MBC of 24 µM (≈ 99.5 µg/mL) (Escherichia coli; ATCC 25922).
Cc1ccc(C(=O)Sc2cccccc2=O)cc1 gave an MIC80 of 0.25 µM (≈ 0.0641 µg/mL) (Cryptococcus neoformans).
For CN[C@H](CC(C)C)C(=O)N[C@H]1C(=O)N[C@@H](CC(N)=O)C(=O)N[C@H]2C(=O)N[C@H]3C(=O)N[C@H](C(=O)N[C@H](C(=O)NCCCNC(=N)N)c4cc(O)cc(O)c4-c4cc3ccc4O)[C@H](O)c3ccc(c(Cl)c3)Oc3cc2cc(c3O[C@@H]2O[C@H](CO)[C@@H](O)[C@H](O)[C@H]2O[C@H]2C[C@](C)(NCc3ccc(-c4ccc(Cl)cc4)cc3)[C@H](O)[C@H](C)O2)Oc2ccc(cc2Cl)[C@H]1O, the activity improvement was at most 8 fold (Enterococcus; VanA vancomycin-resistant; concentration not given; reference: CBP-vancomycin).
With Cc1ccc(/N=N/c2c(C)c(C(=O)Nc3ccccc3)c(N)n(-c3ccccc3)c2=O)cc1 the MIC was 1.95 µg/mL (≈ 4.46 µM) (Aspergillus fumigatus).
With NC(=O)c1c(F)ccc(OCc2nc3cc(Cl)cnc3s2)c1F the ED50 was under 3 mg/kg (Staphylococcus aureus; Smith, mouse, infection; intraperitoneal, single dose).
O=C(Nc1ccccc1-c1cccc(Cl)c1)c1nccnc1C(F)(F)F gave an EC80 of 0.5 to 2 mg a.i./L (Puccinia triticina; wheat).
C/C=C/CNC(=N)NCCCCCCCCN1CCCCCCCCNC(=N)NC1=O gave an MIC50 of 2.5 µg/mL (≈ 5.74 µM) (Candida albicans).
O=C(CCCCCCCCCN=C=S)CC(=O)N[C@H]1CCOC1=O — result for “inhibition of pyocyanin production”: about 50% (Pseudomonas aeruginosa; PAO1; concentration not given).
For CCN(CC)CC#CCNc1ccnc2cc(Cl)ccc12, the parasitaemia reduction was about 100% (Plasmodium berghei; mouse, infected; dose not given, 11 days post infection).
CN1CCC(c2cc(-c3ccc(F)cc3)c(-c3ccncc3)[nH]2)CC1 has an IC50 of 600 nM (Leishmania major; promastigotes).
Cc1nc(N(C)C(=O)Cc2ccc(-c3ccccn3)cc2)sc1S(N)(=O)=O has an EC50 of 20 nM (herpes simplex virus 1; viral replication).
The EC80 of O=C(Nc1ccccc1-c1ccc(Cl)c(F)c1)c1nccnc1C(F)(F)F is reported as 0.5 to 2 mg a.i./L (Blumeria graminis; barley).
Under “absorbed dose coefficient”, CN1C(=O)[C@@H](Cc2ccc(O)cc2)NC(=O)CNC(=O)[C@H](Cc2ccc3ccccc3c2)NC(=O)[C@H](CCCNC(=N)N)NC(=O)[C@H]1CCCNC(=O)c1ccc(CNC(=O)CN2CCN(CC(=O)O)CCN(CC(=O)O)CCN(CC(=O)O)CC2)cc1 [gallium-68 labelled] is recorded as 0.0123 mGy/MBq (PET dosimetry; human patients, adrenals).
For O=C(Nc1ccccc1-c1ccc(F)cc1)c1nccnc1C(F)(F)F, the EC80 was 2 to 10 mg a.i./L (Botrytis cinerea; cucumber).
For CNS(=O)(=O)c1sc(N(C)C(=O)Cc2ccc(-c3ccccc3)cc2)nc1C, the EC50 was 50 nM (herpes simplex virus 2; viral replication).
Cc1cccc(C)c1NC1=C(O)C(=O)c2ccccc2C1=O gave a parasitemia inhibition of 0% (Plasmodium berghei; infected mice; dose not given, day 5; reference: untreated).
With CCCCCCCCCCCCCCCCOCCOP1(=O)COC(Cn2cnc(N)nc2=O)CO1 (stereo not drawn) the selectivity index was 1160 (herpes simplex virus; reference: cytotoxicity over antiviral activity).
CNCCCOc1cc(F)c(-c2c(Cl)nc3ncnn3c2NCC(F)(F)F)c(F)c1: “acetylated α-tubulin level” 4.56 ± 0.8 (HEK293; 1 µM, 4 h, unit not given; reference: vehicle (DMSO)).
COC1=CC(c2ccc[nH]2)=NC1=Cc1[nH]c(Cc2ccc(Cl)cc2)cc1Cc1ccc(Cl)cc1 gave a parasite reduction of 92% (Plasmodium yoelii; multidrug-resistant, mouse; 5 mg/kg/day).
O=c1c(O)ccccc1O gave an MIC80 of 24 µM (≈ 3.31 µg/mL) (Cryptococcus neoformans).
With C[C@@](CCn1ccc(-c2ccccc2)cc1=O)(C(=O)NO)S(C)(=O)=O the MIC90 was 16 µg/mL (≈ 43.9 µM) (Klebsiella pneumoniae; 98 clinical isolates).
Cc1nc(N(C)C(=O)Nc2ccc(N3CCOCC3)cc2)sc1S(=O)(=O)N(C)C has an EC50 of 1500 nM (herpes simplex virus 2; viral replication).
For Cc1ncccc1C(=O)Nc1cccc2c1C(C)CC2(C)C (stereo not drawn), the EC80 was 20 to 100 mg a.i./L (Botrytis cinerea; cucumber).
With CC(=O)O[C@H]1C2=C(C(=O)C(OC(=O)c3ccccc3)=C(C(C)C)C2=O)[C@@]2(C)CCCC(C)(C)[C@@H]2[C@@H]1OC(=O)c1ccccc1 the GI50 was at most 5000 nM (MEL1).
O=C(Nc1ccccc1-c1cc(F)cc(F)c1)c1nccnc1C(F)(F)F gave an EC80 of 5 to 20 mg a.i./L (Botrytis cinerea; cucumber).
The IC50 ratio of CCN(CC)c1ccc2nc3c4ccccc4/c(=N/c4ccncc4)cc-3oc2c1 is reported as at least 1000 fold (Trypanosoma brucei rhodesiense; reference: T. brucei rhodesiense over Plasmodium falciparum K1).

Some of these lines once more:
Cc1cccc(C)c1NC1=C(O)C(=O)c2ccccc2C1=O gave a parasitemia inhibition of 0% (Plasmodium berghei; infected mice; dose not given, day 5; reference: untreated).
With C[C@@](CCn1ccc(-c2ccccc2)cc1=O)(C(=O)NO)S(C)(=O)=O the MIC90 was 16 µg/mL (≈ 43.9 µM) (Klebsiella pneumoniae; 98 clinical isolates).
O=C(CCCCCCCCCN=C=S)CC(=O)N[C@H]1CCOC1=O — result for “inhibition of pyocyanin production”: about 50% (Pseudomonas aeruginosa; PAO1; concentration not given).
COC1=CC(c2ccc[nH]2)=NC1=Cc1[nH]c(Cc2ccc(Cl)cc2)cc1Cc1ccc(Cl)cc1 gave a parasite reduction of 92% (Plasmodium yoelii; multidrug-resistant, mouse; 5 mg/kg/day).
For CNS(=O)(=O)c1sc(N(C)C(=O)Cc2ccc(-c3ccccc3)cc2)nc1C, the EC50 was 50 nM (herpes simplex virus 2; viral replication).
